Experimental data gathered from unrelated publications.
Each line is one published result; not all experiments were run side by side. “And” joins repeats or separate records; there may be more than shown. Numbers after ± are the reported error.
IFIT1: Antiviral innate immune response effector IFIT1 (IFIT1, Homo sapiens, UniProt P09914)
Sequence of UniProt P09914 (whole entry, looked up): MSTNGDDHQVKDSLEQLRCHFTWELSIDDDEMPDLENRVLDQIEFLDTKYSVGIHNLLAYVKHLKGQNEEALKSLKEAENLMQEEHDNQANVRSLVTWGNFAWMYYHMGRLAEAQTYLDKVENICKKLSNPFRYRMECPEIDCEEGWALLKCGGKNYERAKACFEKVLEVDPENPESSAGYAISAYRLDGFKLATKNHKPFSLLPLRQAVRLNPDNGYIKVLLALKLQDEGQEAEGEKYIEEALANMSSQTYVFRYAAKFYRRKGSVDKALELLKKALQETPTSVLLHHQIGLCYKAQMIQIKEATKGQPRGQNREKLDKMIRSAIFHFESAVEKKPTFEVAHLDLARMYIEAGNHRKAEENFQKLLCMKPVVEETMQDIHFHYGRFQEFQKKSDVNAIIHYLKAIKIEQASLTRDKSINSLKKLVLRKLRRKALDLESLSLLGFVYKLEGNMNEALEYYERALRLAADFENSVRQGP
VHL with elongin B/C: von Hippel-Lindau disease tumor suppressor, with elongin B/C (VHL, Homo sapiens, UniProt P40337)
Sequence of UniProt Q9SZU7 (whole entry, unmodified, looked up): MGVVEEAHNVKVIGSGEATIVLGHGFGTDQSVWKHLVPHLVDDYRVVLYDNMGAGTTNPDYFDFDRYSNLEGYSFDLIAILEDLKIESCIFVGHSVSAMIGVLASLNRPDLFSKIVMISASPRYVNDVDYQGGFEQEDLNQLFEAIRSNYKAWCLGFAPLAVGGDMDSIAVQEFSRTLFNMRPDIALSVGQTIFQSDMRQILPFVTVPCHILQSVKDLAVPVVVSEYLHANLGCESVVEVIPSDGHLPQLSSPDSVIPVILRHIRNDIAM
Sequence of UniProt Q9SCZ4 (whole entry, unmodified, looked up): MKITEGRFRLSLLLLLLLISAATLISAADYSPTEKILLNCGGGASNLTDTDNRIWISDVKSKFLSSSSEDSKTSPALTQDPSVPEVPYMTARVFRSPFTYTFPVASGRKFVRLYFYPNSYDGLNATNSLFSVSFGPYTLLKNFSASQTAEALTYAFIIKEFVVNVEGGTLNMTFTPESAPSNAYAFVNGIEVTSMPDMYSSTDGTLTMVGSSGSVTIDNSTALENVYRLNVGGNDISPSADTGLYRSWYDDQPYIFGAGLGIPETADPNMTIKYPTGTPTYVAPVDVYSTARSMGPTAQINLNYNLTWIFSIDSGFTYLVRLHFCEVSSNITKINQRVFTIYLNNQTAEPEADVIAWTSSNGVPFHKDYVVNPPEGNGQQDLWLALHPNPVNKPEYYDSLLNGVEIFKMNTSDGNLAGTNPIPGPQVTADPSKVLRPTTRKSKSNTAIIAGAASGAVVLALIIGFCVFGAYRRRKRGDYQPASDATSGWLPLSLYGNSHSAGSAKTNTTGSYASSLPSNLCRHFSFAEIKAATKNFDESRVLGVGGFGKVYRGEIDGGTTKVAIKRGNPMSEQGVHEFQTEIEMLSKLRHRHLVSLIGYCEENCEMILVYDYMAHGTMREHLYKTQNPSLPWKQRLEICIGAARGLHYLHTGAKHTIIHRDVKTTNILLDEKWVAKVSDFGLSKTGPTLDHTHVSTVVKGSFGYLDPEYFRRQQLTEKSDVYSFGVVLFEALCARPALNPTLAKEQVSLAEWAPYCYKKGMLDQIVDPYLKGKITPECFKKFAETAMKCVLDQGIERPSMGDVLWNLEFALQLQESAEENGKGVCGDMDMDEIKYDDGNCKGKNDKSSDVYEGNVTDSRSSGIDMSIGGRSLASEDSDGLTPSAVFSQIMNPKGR
Sequence of UniProt P02754 (whole entry, unmodified, looked up): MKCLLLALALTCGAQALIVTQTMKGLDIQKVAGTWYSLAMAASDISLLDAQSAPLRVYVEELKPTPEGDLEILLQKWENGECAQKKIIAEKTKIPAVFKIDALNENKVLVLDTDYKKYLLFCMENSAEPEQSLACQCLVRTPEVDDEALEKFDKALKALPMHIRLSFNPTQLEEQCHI
Sequence of UniProt P39748 (whole entry, unmodified, looked up): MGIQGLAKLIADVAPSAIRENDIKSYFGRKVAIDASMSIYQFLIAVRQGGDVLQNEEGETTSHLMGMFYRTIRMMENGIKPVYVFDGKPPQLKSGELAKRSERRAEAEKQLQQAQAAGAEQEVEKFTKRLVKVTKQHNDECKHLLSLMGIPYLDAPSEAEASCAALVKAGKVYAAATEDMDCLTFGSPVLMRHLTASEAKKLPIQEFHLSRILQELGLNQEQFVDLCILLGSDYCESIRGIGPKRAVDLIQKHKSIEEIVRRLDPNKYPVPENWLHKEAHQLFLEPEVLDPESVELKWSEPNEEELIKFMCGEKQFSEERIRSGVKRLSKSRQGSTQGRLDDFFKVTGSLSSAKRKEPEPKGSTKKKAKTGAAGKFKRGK
Sequence of UniProt P00915 (whole entry, looked up): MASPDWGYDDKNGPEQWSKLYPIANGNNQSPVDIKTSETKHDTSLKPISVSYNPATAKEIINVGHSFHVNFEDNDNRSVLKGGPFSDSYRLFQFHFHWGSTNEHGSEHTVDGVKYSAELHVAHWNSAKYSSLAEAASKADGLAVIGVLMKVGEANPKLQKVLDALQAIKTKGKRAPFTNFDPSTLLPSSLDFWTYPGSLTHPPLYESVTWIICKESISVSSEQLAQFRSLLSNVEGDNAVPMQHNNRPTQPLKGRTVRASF
Sequence of UniProt Q96CN7 (whole entry, looked up): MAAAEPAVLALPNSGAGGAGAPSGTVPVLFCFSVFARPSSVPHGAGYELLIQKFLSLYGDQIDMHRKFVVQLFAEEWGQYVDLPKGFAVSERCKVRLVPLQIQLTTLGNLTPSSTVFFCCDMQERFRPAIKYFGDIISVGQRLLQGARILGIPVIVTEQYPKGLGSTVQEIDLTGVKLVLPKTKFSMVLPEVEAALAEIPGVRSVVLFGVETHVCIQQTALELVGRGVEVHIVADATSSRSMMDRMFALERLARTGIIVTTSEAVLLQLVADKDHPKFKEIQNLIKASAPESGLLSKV
Sequence of UniProt Q86WV6 (whole entry, unmodified, looked up): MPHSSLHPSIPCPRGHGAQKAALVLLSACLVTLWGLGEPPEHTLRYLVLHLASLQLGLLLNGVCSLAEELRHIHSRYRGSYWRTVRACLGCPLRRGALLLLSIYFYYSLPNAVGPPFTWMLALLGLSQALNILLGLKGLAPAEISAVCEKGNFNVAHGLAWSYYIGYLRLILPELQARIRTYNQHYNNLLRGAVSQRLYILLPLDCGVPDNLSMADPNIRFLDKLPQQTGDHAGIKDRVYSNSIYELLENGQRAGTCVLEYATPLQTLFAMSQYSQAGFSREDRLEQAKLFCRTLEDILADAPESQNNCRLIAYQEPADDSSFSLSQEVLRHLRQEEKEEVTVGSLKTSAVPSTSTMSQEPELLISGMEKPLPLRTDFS
Sequence of UniProt O15075 (whole entry, looked up): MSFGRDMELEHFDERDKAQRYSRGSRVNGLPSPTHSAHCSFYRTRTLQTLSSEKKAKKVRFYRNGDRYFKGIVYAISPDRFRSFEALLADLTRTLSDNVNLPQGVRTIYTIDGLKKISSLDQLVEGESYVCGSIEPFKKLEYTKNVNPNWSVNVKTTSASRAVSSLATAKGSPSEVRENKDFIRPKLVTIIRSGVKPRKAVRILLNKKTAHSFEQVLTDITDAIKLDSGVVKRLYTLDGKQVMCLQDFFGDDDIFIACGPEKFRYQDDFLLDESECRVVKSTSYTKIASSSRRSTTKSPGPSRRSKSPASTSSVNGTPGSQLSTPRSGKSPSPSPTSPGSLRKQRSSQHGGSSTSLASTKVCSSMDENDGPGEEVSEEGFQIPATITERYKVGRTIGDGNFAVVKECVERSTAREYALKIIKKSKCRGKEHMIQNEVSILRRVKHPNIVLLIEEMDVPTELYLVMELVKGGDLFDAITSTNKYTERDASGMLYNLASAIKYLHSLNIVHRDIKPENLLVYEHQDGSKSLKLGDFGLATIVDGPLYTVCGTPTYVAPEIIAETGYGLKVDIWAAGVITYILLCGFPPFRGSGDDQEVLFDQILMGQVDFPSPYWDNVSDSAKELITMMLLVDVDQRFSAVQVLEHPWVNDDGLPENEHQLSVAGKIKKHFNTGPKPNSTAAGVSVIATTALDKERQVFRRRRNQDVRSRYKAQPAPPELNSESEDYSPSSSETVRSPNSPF
Sequence of UniProt Q9BYT3 (whole entry, looked up): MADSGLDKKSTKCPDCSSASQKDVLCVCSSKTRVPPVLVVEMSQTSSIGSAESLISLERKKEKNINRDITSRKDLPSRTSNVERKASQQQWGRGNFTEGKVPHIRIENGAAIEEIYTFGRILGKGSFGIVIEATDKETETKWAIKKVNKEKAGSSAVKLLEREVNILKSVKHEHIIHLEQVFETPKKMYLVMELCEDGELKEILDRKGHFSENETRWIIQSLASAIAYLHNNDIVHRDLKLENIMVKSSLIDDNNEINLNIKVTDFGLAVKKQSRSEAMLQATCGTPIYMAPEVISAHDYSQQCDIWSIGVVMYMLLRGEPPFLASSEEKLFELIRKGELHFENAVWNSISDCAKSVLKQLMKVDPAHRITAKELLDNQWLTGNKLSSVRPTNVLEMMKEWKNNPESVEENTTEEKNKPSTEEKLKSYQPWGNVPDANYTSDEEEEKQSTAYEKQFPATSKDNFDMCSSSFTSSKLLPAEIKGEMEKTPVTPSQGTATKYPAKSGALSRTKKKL
Sequence of UniProt Q96S37 (whole entry, looked up): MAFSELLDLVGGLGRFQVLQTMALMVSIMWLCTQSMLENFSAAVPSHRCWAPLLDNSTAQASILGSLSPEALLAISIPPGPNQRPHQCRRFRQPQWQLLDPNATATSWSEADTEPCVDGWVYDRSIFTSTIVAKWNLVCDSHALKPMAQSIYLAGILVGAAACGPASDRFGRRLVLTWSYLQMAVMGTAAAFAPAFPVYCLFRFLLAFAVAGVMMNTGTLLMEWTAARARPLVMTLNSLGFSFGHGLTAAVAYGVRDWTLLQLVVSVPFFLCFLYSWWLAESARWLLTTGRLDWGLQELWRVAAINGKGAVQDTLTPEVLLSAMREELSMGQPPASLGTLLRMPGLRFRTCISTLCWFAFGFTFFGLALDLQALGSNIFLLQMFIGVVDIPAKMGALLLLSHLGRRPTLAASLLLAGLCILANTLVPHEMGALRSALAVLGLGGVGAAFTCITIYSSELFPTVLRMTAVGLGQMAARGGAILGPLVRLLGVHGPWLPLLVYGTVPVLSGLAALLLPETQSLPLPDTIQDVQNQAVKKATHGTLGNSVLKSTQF

For `O=c1c2sccc2n(CC2COc3ccccc3O2)c(=O)n1O` (centres unmarked), the Kd was 0.182 µM (Flap endonuclease 1 (Homo sapiens, UniProt P39748); ITC; pH 7.5, 25 °C, together with: 8 mM Mg2+).
The Kd of `CC(=O)N1c2ccc(-c3ccc(CNC(=O)c4cn5cc(-c6cnc(N)nc6)nc(N6CCOCC6)c5n4)cc3)cc2CC[C@@H]1C` is reported as 0.0016 µM (Bromodomain-containing protein 2, BD2 (BRD2, Homo sapiens, UniProt P25440); binding, competition with immobilised ligand).
With `CC(=O)c1cnc2ccc(-c3cc(Cl)c(O)c(Cl)c3)nc2c1N[C@H]1CC[C@H](CN(C)C)CC1` the Kd was 1.1 µM (Receptor-like protein kinase FERONIA (FER, Arabidopsis thaliana, UniProt Q9SCZ4, K565A); binding, SPR; mutant protein).
`Cc1c[nH]c2nccc(-c3ccc(C(=O)N[C@@H]4c5c(F)cc(C(F)F)cc5C[C@@H]4O)cn3)c12` gave a Kd of 0.42 µM (STK33 (Homo sapiens, UniProt Q9BYT3); binding, competition with immobilised ligand).
`COc1cc(N2CCN(C)CC2)ccc1Nc1ncc2c(n1)N(C)c1ccc(C)cc1C(=O)N2CC(F)(F)F` gave a Kd of greater than 3 µM (DCLK1 (Homo sapiens, UniProt O15075); binding, ITC).
`C[n+]1cn([C@@H]2O[C@H](COP(=O)(O)OP(=O)([O-])OP(=O)(O)OC[C@H]3O[C@@H](n4cnc5c(N)ncnc54)[C@H](O)[C@@H]3OP(=O)(O)OC[C@H]3O[C@@H](n4cnc5c(=O)[nH]c(N)nc54)[C@H](O)[C@@H]3O)[C@@H](O)[C@H]2O)c2nc(N)nc(O)c21` gave a Kd of 0.1 µM (IFIT1; binding, microscale thermophoresis; pH 7.5).
`O=C(O)C1OC(OC2C(C(=O)O)OC(OC3C(C(=O)O)OC(OC4C(C(=O)O)OC(O)C(O)C4O)C(O)C3O)C(O)C2O)C(O)C(O)C1O` (centres unmarked) has a Kd of 466 µM (Beta-lactoglobulin (LGB, Bos taurus, UniProt P02754, A134V/G80D); isothermal titration calorimetry; pH 2.65, 37 °C, 50 mM KH2PO4).
`C#CCN1CCN(c2nc(N3CCN(c4ccc(Cc5cc(CNC(=O)[C@@H]6C[C@@H](O)CN6C(=O)[C@@H](NC(=O)C6(F)CC6)C(C)(C)C)c(O)cc5-c5scnc5C)cc4)CC3)nc(N3CCN(C(=O)C4CC4)C3)n2)CC1=O` gave a Kd of 0.185 µM (VHL with elongin B/C; binary binding, SPR).
`COc1ccc(C(=O)NO)cc1NC(=O)c1ccc(-c2ccccc2)cc1` gave a Kd of greater than 30.2 µM (Isochorismatase domain-containing protein 1 (Homo sapiens, UniProt Q96CN7); inhibitor, competition pulldown; SW620 and MV4-11 lysate; 1 h).
`CN1CCN(c2ccc3cc(COC(=O)Nc4cccc(C(=O)NO)c4)ccc3c2)CC1` has a Kd of 3.48 µM (Alpha-synuclein, pre-formed fibrils (SNCA, Homo sapiens, UniProt P37840); binding, ITC; PBS; 25 °C).
`Nc1nc2c(ncn2[C@@H]2O[C@H](COP(=O)(O)O[C@H]3[C@@H](O)[C@H](n4cnc5c(N)ncnc54)O[C@@H]3COP(=O)(O)OP(=O)(O)OP(=O)(O)OC[C@H]3O[C@@H](n4cnc5c(=O)[nH]c(N)nc54)[C@H](O)[C@@H]3O)[C@@H](O)[C@H]2O)c(=O)[nH]1` gave a Kd of 0.011 µM (IFIT1; binding, microscale thermophoresis; pH 7.5, 70 nt capped RNA).
For `Cc1cccc2c1N(C(=O)n1ccnn1)CC2`, the Kd was 21.4 µM and 26.1 µM and 31.4 µM (KAI2 (Arabidopsis thaliana, UniProt Q9SZU7, L218I); ITC; L218I mutant).
`Nc1nc(O)c2ncn([C@H]3C[C@@H]4OP(=O)(O)OC[C@@H]5C[C@@H](OP(=O)(O)OC[C@H]4O3)[C@H](n3cnc4c(N)ncnc43)O5)c2n1` gave a Kd of 42.9 ± 35.1 µM (STING1 (Homo sapiens, UniProt Q86WV6, R220H); binding).
For `C[n+]1cn([C@@H]2O[C@H](COP(=O)(O)OP(=O)([O-])OP(=O)(O)OC[C@H]3O[C@@H](n4ccc(N)nc4=O)[C@H](O)[C@@H]3OP(=O)(O)OC[C@H]3O[C@@H](n4cnc5c(=O)[nH]c(N)nc54)[C@H](O)[C@@H]3O)[C@@H](O)[C@H]2O)c2nc(N)nc(O)c21`, the Kd was 13 µM (IFIT1; binding, microscale thermophoresis; pH 7.5).
The Kd of `Cc1ncsc1-c1ccc(CNC(=O)[C@@H]2C[C@@H](O)CN2C(=O)[C@@H](NC(=O)COCC(C)(COCCOCCOCCNC(=O)C[C@@H]2N=C(c3ccc(Cl)cc3)c3c(sc(C)c3C)-n3c(C)nnc32)COCCOCCOCCNC(=O)C[C@@H]2N=C(c3ccc(Cl)cc3)c3c(sc(C)c3C)-n3c(C)nnc32)C(C)(C)C)cc1` is reported as 0.624 ± 0.084 µM (von Hippel-Lindau disease tumor suppressor, with Elongin B/C (VHL, Homo sapiens, UniProt P40337); binding, SPR; binary, immobilized VCB complex).
`CCc1nc2cc3ccccc3cc2cc1C(=O)N[C@@H](CCCCN)C(=O)N[C@@H](C/C=C\C[C@H](NC(=O)[C@H](CCCCN)NC(=O)c1cc2cc3ccccc3cc2nc1CC)C(=O)N1CCC[C@H]1C(=O)NCCCN)C(=O)N1CCC[C@H]1C(=O)NCCCN` gave a Kd of 0.0999 µM (CUG–CAG duplex RNA; SPR).
`O=C(NS(=O)(=O)c1cccs1)c1cc2ccccc2n1Cc1ccc(Br)c2ccccc12` has a Kd of 2.84 µM (SLC22A12 (Homo sapiens, UniProt Q96S37); binding, SPR).
For `Cc1ncsc1-c1ccc(CNC(=O)[C@@H]2C[C@@H](O)CN2C(=O)[C@@H](NC(=O)C2(F)CC2)C(C)(C)C)c(OCCC2CN(c3nc(NCC(C)(C)C4(O)CCOC4)nc(N4CCC[C@H]4Cn4ccnn4)n3)C2)c1` (some centres unmarked), the Kd was 0.011 µM (VHL with elongin B/C; binary binding, SPR).
The Kd of `CN(C)c1nc(O)c2c(n1)n([C@@H]1O[C@H](COP(=O)(O)OP(=O)([O-])OP(=O)(O)OC[C@H]3O[C@@H](n4cnc5c(N)ncnc54)[C@H](O)[C@@H]3OP(=O)(O)OC[C@H]3O[C@@H](n4cnc5c(=O)[nH]c(N)nc54)[C@H](O)[C@@H]3O)[C@@H](O)[C@H]1O)c[n+]2C` is reported as 0.03 µM (IFIT1; binding, microscale thermophoresis; pH 7.5).
For `CCc1nc2cc3ccccc3cc2cc1C(=O)N1CCC[C@H]1C(=O)N[C@@H](C/C=C/C[C@H](NC(=O)[C@@H]1CCCN1C(=O)c1cc2cc3ccccc3cc2nc1CC)C(=O)N[C@@H](CCCCN)C(=O)NCCCN)C(=O)N[C@@H](CCCCN)C(=O)NCCCN`, the Kd was 0.188 µM (CUG–CAG duplex RNA; SPR).
The Kd of `CO[C@@H]1[C@H](OP(=O)(O)OC[C@H]2O[C@@H](n3cnc4c(=O)[nH]c(N)nc43)[C@H](O)[C@@H]2O)[C@@H](COP(=O)(O)OP(=O)([O-])OP(=O)(O)OC[C@H]2O[C@@H](n3c[n+](C)c4c(O)nc(N)nc43)[C@H](O)[C@@H]2O)O[C@H]1n1cnc2c(N)ncnc21` is reported as 380 µM (IFIT1; binding, microscale thermophoresis; pH 7.5).
`NS(=O)(=O)c1cc(C(=O)NCCCC(=O)O)c(NC2CCCCC2)cc1Cl` gave a Kd of greater than 200 µM (CA1 (Homo sapiens, UniProt P00915); pH 7).
The Kd of `Cc1cc2nc3c(=O)[nH]c(=O)nc-3n(C[C@H](O)[C@H](O)[C@H](O)COP(=O)(O)OP(=O)(O)OC[C@H]3O[C@@H](n4cnc5c(N)ncnc54)[C@H](O)[C@@H]3OP(=O)(O)OC[C@H]3O[C@@H](n4cnc5c(=O)[nH]c(N)nc54)[C@H](O)[C@@H]3O)c2cc1C` is reported as 21 µM (IFIT1; binding, microscale thermophoresis; pH 7.5).
The Kd of `CC(=O)NCC1CCCCN1c1nc(N2CCN(c3nnc[nH]3)CC2)nc(N2CC3C(CCOc4cc(-c5scnc5C)ccc4CNC(=O)[C@@H]4C[C@@H](O)CN4C(=O)[C@@H](NC(=O)C4(F)CC4)C(C)(C)C)C3C2)n1` (some centres unmarked) is reported as 0.024 µM (VHL with elongin B/C; binary binding, SPR).
For `CNc1ncnc2c1ncn2[C@@H]1O[C@H](COP(=O)(O)OP(=O)([O-])OP(=O)(O)OC[C@H]2O[C@@H](n3c[n+](C)c4c(O)nc(N)nc43)[C@H](O)[C@@H]2O)[C@@H](OP(=O)(O)OC[C@H]2O[C@@H](n3cnc4c(=O)[nH]c(N)nc43)[C@H](O)[C@@H]2O)[C@H]1OC`, the Kd was 3800 µM (IFIT1; binding, microscale thermophoresis; pH 7.5).
The Kd of `NCCCC[C@H](NC(=O)[C@H](C/C=C\C[C@H](NC(=O)[C@@H]1CCCN1)C(=O)N[C@@H](CCCCN)C(=O)NCCCN)NC(=O)[C@@H]1CCCN1)C(=O)NCCCN` is reported as 0.325 µM (CUG–CAG duplex RNA; SPR).
